# Experimental data from different studies.
# Numbered parts are unrelated; each lists some results of a single study. Positions count from the first letter of the parent shown.

# Sample 1
# Target: ABI1, truncated, D143A, DHFR fusion (Arabidopsis thaliana)
# Method: DHFR PCA, deep sequencing
# Medium: yeast
# Notes: methotrexate growth selection, single substitutions
# With: (+)-ABA 0.0091 µM
# Reference: wild-type fitted maximum
# Reading: higher = stronger binding
# Starting sequence: PYL1, truncated, DHFR fusion (Arabidopsis thaliana); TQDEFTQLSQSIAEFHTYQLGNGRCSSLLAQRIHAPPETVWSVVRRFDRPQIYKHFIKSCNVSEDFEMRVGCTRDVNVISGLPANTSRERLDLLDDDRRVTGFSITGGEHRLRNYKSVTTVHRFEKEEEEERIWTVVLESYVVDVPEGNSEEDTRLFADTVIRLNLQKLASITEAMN; partner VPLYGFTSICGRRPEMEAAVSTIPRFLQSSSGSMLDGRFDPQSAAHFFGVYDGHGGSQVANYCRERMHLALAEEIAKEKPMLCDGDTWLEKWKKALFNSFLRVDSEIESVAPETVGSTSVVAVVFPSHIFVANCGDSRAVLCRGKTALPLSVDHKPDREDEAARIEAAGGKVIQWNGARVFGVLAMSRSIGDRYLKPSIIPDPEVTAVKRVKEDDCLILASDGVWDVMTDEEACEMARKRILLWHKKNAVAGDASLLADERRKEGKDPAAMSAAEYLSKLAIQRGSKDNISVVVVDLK
Change,relative binding score
E4G,-0.538%
P37Q,10.3%
R111Y,-3.74%
Q2E,35.2%
H55L,16.6%
L94V,-2.16%

# Sample 2
# Target: CCNB2, cyclin fold, Cln2 fusion (human)
# Method: yeast growth competition, sequencing
# Medium: yeast
# Notes: weak parent motif
# Reference: not given
# Reading: higher = stronger binding
# Starting sequence: EXO1 docking peptide (human); KPECGRVQRAIFQ; partner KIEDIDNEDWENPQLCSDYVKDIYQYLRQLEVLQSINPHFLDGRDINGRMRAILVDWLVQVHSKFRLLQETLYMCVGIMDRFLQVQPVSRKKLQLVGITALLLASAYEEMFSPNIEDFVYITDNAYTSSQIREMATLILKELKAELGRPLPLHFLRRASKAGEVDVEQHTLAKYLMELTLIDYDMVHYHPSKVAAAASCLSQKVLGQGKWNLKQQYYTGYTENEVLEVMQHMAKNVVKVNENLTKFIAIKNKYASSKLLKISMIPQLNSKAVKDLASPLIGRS
Change,normalised enrichment score
R6A,0.222
Q13A,0.126
I11A,0.18
C4A,-0.0766
F12A,0.149
Q8A,0.567

# Sample 3
# Target: Interferon regulatory factor 3, full length, phosphomimetic (IRF3, Homo sapiens, UniProt Q14653, residues 1-427, S386D/S396D/S398D/S402D/T404D/S405D)
# Method: protein-binding microarray
# Molecule type: double-stranded DNA, one strand shown
# Medium: in vitro
# Concentration: 2540 nM top
# Notes: 60-bp whole probe
# With: salmon DNA 0.4 mg/ml
# Reference: random background probes
# Reading: higher = stronger binding
# Shared flanks, not repeated: GCCTAGCAC … GTCTTGATTCGCTTGACGCTGCTG
# Construct (chain): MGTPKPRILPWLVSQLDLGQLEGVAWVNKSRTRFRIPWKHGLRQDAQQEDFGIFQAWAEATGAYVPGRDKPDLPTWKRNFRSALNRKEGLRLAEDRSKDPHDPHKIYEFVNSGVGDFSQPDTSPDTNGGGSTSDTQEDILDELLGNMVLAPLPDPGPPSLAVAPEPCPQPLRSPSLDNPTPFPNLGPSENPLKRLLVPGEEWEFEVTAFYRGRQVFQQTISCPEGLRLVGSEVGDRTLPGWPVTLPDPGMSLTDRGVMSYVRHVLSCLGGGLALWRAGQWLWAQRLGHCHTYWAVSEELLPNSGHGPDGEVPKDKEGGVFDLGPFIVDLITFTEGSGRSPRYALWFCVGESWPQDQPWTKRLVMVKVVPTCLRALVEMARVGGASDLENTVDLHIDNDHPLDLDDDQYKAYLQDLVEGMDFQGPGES
Strand,fitted relative affinity [z-score]
TGAGAACTGGGGTTTCGATTAGTGCTA,1.12
GACGGACTGGGGTATCGGGAGGTGCTA,-0.775
TTAGGTCTCGGACAGGGTTAGTGCTAG,-0.575
AGTCCGTGGATTGACCAGATGTGCTAG,-0.264
GCAAATATATCAGTGAATTTGTGCTAG,0.111
TTAGGACTGGGTTTCGGTAAGTGCTAG,2.16
TTACCTCTCACGCATCTGAAAGTGCTA,0.64

# Single results of other studies
Molecule,target,test,test system,setting,scale,measurement,result
"PhoQ, residues 284 288 289 292 302 303 GLASVI","PhoP, residues 12 14 15 18 19 SQCLL (Escherichia coli, UniProt P23836)","Sort-seq, measured: YFP reporter",E. coli,"PhoQ-PhoP variant library, with: 10 µM Mg2+","reference: high Mg2+ state, higher = stronger signaling",fold induction,3.35
